Assay results gathered from unrelated publications.
Each numbered part is a random draw from the data of one study; scales do not carry over between parts. Substitutions count along the parent as printed.

Study 1 — technique: protein-binding microarray; molecule type: double-stranded DNA, one strand shown; matrix: in vitro; tested at: 2200 nM top; notes: 60-bp whole probe; with: salmon DNA 0.4 mg/ml; baseline: random background probes; direction: higher = stronger binding; constant ends, left off below: GCCTAGCAC … GTCTTGATTCGCTTGACGCTGCTG
Target: Interferon regulatory factor 7, full length, phosphomimetic (IRF7, Homo sapiens, UniProt Q92985, residues 1-503, S471D/S472D/S475D/S476D/S477D/S483D/S484D/S487D)
Sequence of UniProt Q92985 (whole entry, unmodified, looked up): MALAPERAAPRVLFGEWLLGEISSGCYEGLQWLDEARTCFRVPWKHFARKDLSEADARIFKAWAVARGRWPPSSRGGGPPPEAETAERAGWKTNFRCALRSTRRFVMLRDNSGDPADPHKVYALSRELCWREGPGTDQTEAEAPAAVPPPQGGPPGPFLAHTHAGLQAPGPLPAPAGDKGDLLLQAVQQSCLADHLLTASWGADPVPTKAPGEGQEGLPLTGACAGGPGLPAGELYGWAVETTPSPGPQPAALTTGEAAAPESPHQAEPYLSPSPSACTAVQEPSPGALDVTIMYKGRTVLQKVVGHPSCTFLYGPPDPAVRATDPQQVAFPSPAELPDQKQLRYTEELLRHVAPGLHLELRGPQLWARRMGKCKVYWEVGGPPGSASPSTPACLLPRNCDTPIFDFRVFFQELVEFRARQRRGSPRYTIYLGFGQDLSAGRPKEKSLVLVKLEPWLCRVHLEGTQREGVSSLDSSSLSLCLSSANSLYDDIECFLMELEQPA
`GACGGTCTCGGTTTCAGGACGTGCTAG`: “fitted relative affinity” 2.08 z-score.
`TCATCTCTCTGTGACACACTGTGCTAG` — result for “fitted relative affinity”: 1.51 z-score.
For `TTCCCAATGGTCTTTCCACTTGTGCTA`, “fitted relative affinity” read 2.77 z-score.
`GATGGACTGGGGTATCGGGACGTGCTA` — result for “fitted relative affinity”: -0.515 z-score.
Under “fitted relative affinity”, `TCCATTTTGTGTTTTCATTTGTGCTAG` is recorded as 3.6 z-score.
`GACCGTTTCGACTTTCGGGACGTGCTA` — result for “fitted relative affinity”: 6.89 z-score.
For `CCAACTCGCCTTTTTTGTTGGTGCTAG`, “fitted relative affinity” read 1.49 z-score.
Under “fitted relative affinity”, `TTAGGTCTCCTTTTCCTATAGTGCTAG` is recorded as 1.62 z-score.
`TTAGAACTGGGGTATCGCTTAGTGCTA`: “fitted relative affinity” 0.0421 z-score.
`TTAGATATCGGGGATCGATTAGTGCTA` — result for “fitted relative affinity”: -0.0826 z-score.
`GACGGTATCCGGTTTCGGGACGTGCTA`: “fitted relative affinity” 2.96 z-score.
`TTAGGTATCGGTCTCGTTTAGTGCTAG`: “fitted relative affinity” 1.11 z-score.
Under “fitted relative affinity”, `TTAGATCTCAGTTTCGTTTAGTGCTAG` is recorded as 6.65 z-score.
For `TTCTATGACTACATTGCAGCGTGCTAG`, “fitted relative affinity” read 0.734 z-score.
Under “fitted relative affinity”, `GAAGGTATCGGGTATCGGGACGTGCTA` is recorded as -0.154 z-score.
For `TTAGGTCTCGGACTGGGTTCGTGCTAG`, “fitted relative affinity” read -0.338 z-score.
`CTTTGCTCATTTTTCAGGGAGTGCTAG`: “fitted relative affinity” 0.888 z-score.
`TCATACATCTCTCTTAAACTGTGCTAG` — result for “fitted relative affinity”: 0.865 z-score.
For `TTAGGTTTCGGTTCCGGTCAGTGCTAG`, “fitted relative affinity” read 11.1 z-score.
`GACGGTTTCGGACTGGGGATGTGCTAG`: “fitted relative affinity” 3.6 z-score.
For `GACGAACTGGGATTTCGAGACGTGCTA`, “fitted relative affinity” read 0.407 z-score.
`GACGAACTGATACTGGAGACGTGCTAG`: “fitted relative affinity” -0.0731 z-score.
For `TCAGATATAGGATAACGAGCCGTGCTA`, “fitted relative affinity” read -0.527 z-score.
`AGTGGAGTTCATTGTCATTTGTGCTAG` — result for “fitted relative affinity”: 0.337 z-score.
`GACGGACCGCTTCTCCTGACGTGCTAG` — result for “fitted relative affinity”: 0.275 z-score.

Study 2 — technique: RNA Bind-n-Seq; molecule type: RNA; matrix: in vitro; tested at: 365 nM; baseline: no-protein control; direction: higher = stronger binding
Target: RNA binding protein fox-1 homolog 2, RRM domain, GST-SBP tag (RBFOX2, Homo sapiens, UniProt O43251-10, residues 100-194)
Notes: natural RNA segment, single round, ends assumed
Residues (chain): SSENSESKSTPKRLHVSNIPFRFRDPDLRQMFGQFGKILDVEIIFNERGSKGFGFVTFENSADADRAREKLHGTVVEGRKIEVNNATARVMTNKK
For `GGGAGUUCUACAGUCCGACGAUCUAUAUAUAUAUAUAUAUAUAUAUACCUUAACUUCACUUCAAUGUAAAUAAACUUCUGCUGUUAGGGAUUCCAGUGUCUGUGUUUCUUUUUCUUGUAUCCUGAGCUUUUCAUGGAAUUCUCGGGUGCCAA`, “RBNS enrichment (R)” read 0.62.
`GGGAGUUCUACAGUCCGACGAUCGCCUCCCUCCCACCAUCCCAGAAAGGCUCAGGGCAGCCGUGAUCCUCCUAGGGUCACAGUCGGUCAGCUUGGCUGCUCCAUUCUUUCAUAGGCAGGAUUCCUAAUUCCUGUGGAAUUCUCGGGUGCCAA`: “RBNS enrichment (R)” 0.334.
`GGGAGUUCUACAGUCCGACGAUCCCUGGUCCUGCCCCACUUUCCCACUCACCUUUCUCCACUGGGUGCCAAGUCCUAGCUCCUCCUCCUGGGCUAUAUUCCUGACAAAAGUUCCAUAUAGACACCAAGGAGGCUGGAAUUCUCGGGUGCCAA` — result for “RBNS enrichment (R)”: 0.739.
`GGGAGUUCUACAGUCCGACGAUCCACUCAGCCCUGAGUGUUAGGCACUGGCAGAGAGGCAAUGGCAGGCUCACCUUGAUGGAGGGACUGGGGUGGGUGGGACUACCGCCCCGCCCACCUGUCUGCACUCCUGUUGGAAUUCUCGGGUGCCAA`: “RBNS enrichment (R)” 0.369.
For `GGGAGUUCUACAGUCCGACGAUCUUACAAUCCCAUCCUAUGGCCUGCAGCCAGGCUGACAGCCUCUCCCCGAACCAUGCAUCCAAGUGCAGGCUGGGCUGCGGAUCCUUUUUGGGACCUCGAGGGGACAGCAAUGGAAUUCUCGGGUGCCAA`, “RBNS enrichment (R)” read 0.405.
For `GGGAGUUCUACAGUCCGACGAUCUGGCUUUAGGUGAGCCUUCACCUUUUGGUGCCUUCGUUUCCUCAUUUAGCACCUACCUCCUAGAGCUGUUUUGGGAGUCAAAUGCGCUGACGUAUAUAAAGUGCUUUGCAUGGAAUUCUCGGGUGCCAA`, “RBNS enrichment (R)” read 0.665.
For `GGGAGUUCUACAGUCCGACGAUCCUUUCAAACUAAUGCCAGUGACUAGAGAGAGGUUUCAUUCAUGAUGUGUAUUUCCAAUUUGGUCUUCAAUUCAAGAGAUGCUUCAUAAAACACUUAUAGCCUUAAACCAUUGGAAUUCUCGGGUGCCAA`, “RBNS enrichment (R)” read 0.677.
Under “RBNS enrichment (R)”, `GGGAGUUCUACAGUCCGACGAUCAAUUCAAAUCGUGUGACAGCAAACGGGAUAAAUGGCCCCUUCUCACCCAGUUCCGCUCAGGGCCAUACAGGCUUGCACAUAGAGUGUGCUAAAAAUGGUAACCUCCUUUGUGGAAUUCUCGGGUGCCAA` is recorded as 0.285.
Under “RBNS enrichment (R)”, `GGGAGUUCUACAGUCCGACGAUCCAUAGCUUCCGCCCUGCGCUGCCAGUCUCCUACCUGCAGGCCGAGCUGGCCUUCGAGGGCGAGGCCGCCUGCCGGGCCUUCCUAGAGCCCCUGGGCCUGGCCUACACGGGUGGAAUUCUCGGGUGCCAA` is recorded as 0.467.

Study 3 — target: CCNA2, cyclin fold, Cln2 fusion (human); technique: yeast growth competition, sequencing; matrix: yeast; notes: weak parent motif; baseline: not given; direction: higher = stronger binding
Starting sequence: MASTL docking peptide (human); PMIAKNLMCELDE
For `PMIAWNLMCELDE [K5W]`, “normalised enrichment score” read -0.117.
`PMIHKNLMCELDE [A4H]` — result for “normalised enrichment score”: -0.154.
`PMIAKNLMCALDE [E10A]` — result for “normalised enrichment score”: 0.724.
`PMIAKNLECELDE [M8E]` — result for “normalised enrichment score”: -0.305.
Under “normalised enrichment score”, `PMIAKNLGCELDE [M8G]` is recorded as -0.527.
Under “normalised enrichment score”, `PMIAKHLMCELDE [N6H]` is recorded as 0.0148.
Under “normalised enrichment score”, `PMIAKNWMCELDE [L7W]` is recorded as -0.602.
For `PFIAKNLMCELDE [M2F]`, “normalised enrichment score” read 0.231.
`PMIAKNLMCEFDE [L11F]`: “normalised enrichment score” 0.655.
`PMIAKNLMCELAE [D12A]` — result for “normalised enrichment score”: 0.473.
Under “normalised enrichment score”, `PMIAKNLMYELDE [C9Y]` is recorded as -0.43.
For `PMIAKNHMCELDE [L7H]`, “normalised enrichment score” read -0.912.
For `PMIAKNIMCELDE [L7I]`, “normalised enrichment score” read 0.0504.
For `PMIMKNLMCELDE [A4M]`, “normalised enrichment score” read -0.202.
For `PMIAKWLMCELDE [N6W]`, “normalised enrichment score” read 0.563.
Under “normalised enrichment score”, `PMYAKNLMCELDE [I3Y]` is recorded as -0.0123.
`PMIAKNLMCDLDE [E10D]` — result for “normalised enrichment score”: -0.336.
For `PMIAKNNMCELDE [L7N]`, “normalised enrichment score” read -0.164.
`PMIANNLMCELDE [K5N]` — result for “normalised enrichment score”: -0.132.
For `PMIDKNLMCELDE [A4D]`, “normalised enrichment score” read 0.0694.
`PMIEKNLMCELDE [A4E]`: “normalised enrichment score” -0.65.
`PMIAKNLMCECDE [L11C]`: “normalised enrichment score” -0.316.
For `PMIAKQLMCELDE [N6Q]`, “normalised enrichment score” read -0.0344.
Under “normalised enrichment score”, `PMIAKNLMCEHDE [L11H]` is recorded as -0.0649.
For `PMIAKNLMDELDE [C9D]`, “normalised enrichment score” read 0.0631.

Study 4 — technique: RNA Bind-n-Seq; molecule type: RNA; matrix: in vitro; tested at: 200 nM; notes: whole 134-nt RNA, ends assumed; with: 150 mM KCl; baseline: input library; direction: higher = stronger binding
Target: Fragile X messenger ribonucleoprotein 1, C-terminal low-complexity region (Fmr1, Mus musculus, UniProt P35922)
`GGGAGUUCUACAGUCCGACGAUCUUCCCCACUUCCUUCCCUCCAGUCCCCACUCACUCACAUGCACACACUAACCUUGGAGCCGAUGGGAUUGAGUGACUGGCACUUGGGACCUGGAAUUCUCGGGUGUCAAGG` has a log2 enrichment of 0.769.
With `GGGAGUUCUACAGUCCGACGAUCUGUGAGCUGACUUUUUGGAUCAACUUUACUUUUCCCUUCUUUUUAGGCAAUUGAAGAUGAAGGUGGUAAUCCUGACGAAAUUGAAAUUACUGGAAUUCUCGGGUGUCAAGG` the log2 enrichment was -0.0604.
`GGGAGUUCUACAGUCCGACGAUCCCUCAAGUCCUGUGCUACACAUCGUAUGUACCGAAUCGGGGUGGGUGGGGUGGAAAGUAUUAUGUUACGCCGUUCGGAUCUGCACUUCCAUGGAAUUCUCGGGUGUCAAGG` gave a log2 enrichment of 1.25.
For `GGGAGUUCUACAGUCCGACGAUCAAGUCCUGUGCUACACAUCGUAUGUACCGAAUCGGGUUUUGGGGUUUUGGUUUUGGAAAGUAUUAUGUUACGCCGUUCGGAUCUGCACUUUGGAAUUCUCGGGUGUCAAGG`, the log2 enrichment was -0.352.
`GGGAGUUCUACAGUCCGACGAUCAGUCCUGUGCUACACAUCGUAUGUACCGAAUCGGGUGGGAAAAAGGGUUUUUUUGGGAAAGUAUUAUGUUACGCCGUUCGGAUCUGCACUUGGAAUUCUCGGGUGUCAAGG` gave a log2 enrichment of 0.454.
`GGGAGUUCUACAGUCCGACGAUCCACAGACAACACGCACCCACACAGACACAGAGGGAAGGGGUUGGGAUGGGGACAGGGUGCACAGCGGGGCGGGGUAGGACCCCAGCCCCUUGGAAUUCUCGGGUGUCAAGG` has a log2 enrichment of 1.37.
The log2 enrichment of `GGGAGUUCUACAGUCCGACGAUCUGGACAGGUUGCUGGACCCCGCCAACAGAGCCCACCUGGGCCUGGAGGAGCAGCUGAGAGAGCUGCUGGACAUGCUCGACCUCACCUGCGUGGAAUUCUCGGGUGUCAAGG` is reported as -1.33.
The log2 enrichment of `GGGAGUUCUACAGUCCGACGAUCUCCUGUGCUACACAUCGUAUGUACCGAAUCGGGGAAAGGGGUUUGGGGUUUUUUUGGGGAAAGUAUUAUGUUACGCCGUUCGGAUCUGCAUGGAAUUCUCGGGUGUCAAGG` is reported as 0.716.
For `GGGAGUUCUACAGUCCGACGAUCGCAGGAAGUAAAACCAAAUGGAAAUGCUUCGGAUAGUGGCAGGGGUGGGGGUUGCUAAGGAAAGGGUGGGAUGGGAGUGGGUAAAGAGUUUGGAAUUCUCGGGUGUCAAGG`, the log2 enrichment was 0.945.
The log2 enrichment of `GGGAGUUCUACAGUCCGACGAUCUCAAGUCCUGUGCUACACAUCGUAUGUACCGAAUCGGGUUUGGGUUUGGUUUGGAAAGUAUUAUGUUACGCCGUUCGGAUCUGCACUUCCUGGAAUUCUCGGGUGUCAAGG` is reported as -0.245.

Repeated from above (study 1):
For `GACGAACTGGGATTTCGAGACGTGCTA`, “fitted relative affinity” read 0.407 z-score.
`GACGGTATCCGGTTTCGGGACGTGCTA`: “fitted relative affinity” 2.96 z-score.
Under “fitted relative affinity”, `TTAGATCTCAGTTTCGTTTAGTGCTAG` is recorded as 6.65 z-score.
For `TCAGATATAGGATAACGAGCCGTGCTA`, “fitted relative affinity” read -0.527 z-score.
